Published values collected from several papers.
Each line is one published result; not all experiments were run side by side. ± gives the spread as reported. In brackets after ≈: the same amount, converted by molar mass.
Organism: Klebsiella pneumoniae

Molecule | test | system | setting | scale | endpoint | value
Nc1ccc(S(=O)(=O)Nc2ncccn2)cc1 | microbial growth, well diffusion |  | 15000 µg/mL, 24 h |  | inhibition zone | 20.4 mm
CC[C@H]1OC(=O)[C@H](C)[C@@H](O[C@H]2C[C@@](C)(OC)[C@@H](O)[C@H](C)O2)[C@H](C)[C@@H](O[C@@H]2O[C@H](C)C[C@H](N(C)C)[C@H]2O)[C@](C)(O)C[C@@H](C)CN(C)[C@H](C)[C@@H](O)[C@]1(C)O |  | community-acquired pneumonia patients | Fine score below 70 |  | sensitive strains | 0%
Cc1ccc(S(=O)(=O)Nn2c(N)c(-c3nc4ccccc4s3)c3[nH]nc(N)c3c2=O)cc1 | microbial growth, well diffusion |  | 15000 µg/mL, 24 h |  | inhibition zone | 21.3 mm
Cc1c(NC(=O)CC2=NC(=O)CS2)c(=O)n(-c2ccccc2)n1C | microbial growth, broth dilution |  |  |  | MIC | 0.45 µg/mL (≈ 1.31 µM)
Ac-DNCQYVYNV-NH2 (N-acetyl, C-amide) |  | peptide, 43816, wild-type mice, peritoneal neutrophils | intraperitoneal, 1.5 mg, dosed 10 min before infection | relative to: vehicle | fold reduction in CFU | 3.5 ± 0.6 fold
CCOC(=O)c1c(N)csc1-c1cn(-c2ccccc2)nc1-c1ccc(C)cc1 | microbial growth, broth dilution |  |  |  | MIC | 0.25 µg/mL (≈ 0.62 µM)
CC1(C)S[C@@H]2[C@H](NC(=O)[C@H](N)c3ccc(O)cc3)C(=O)N2[C@H]1C(=O)O |  | community-acquired pneumonia patients | Fine score below 70 |  | sensitive strains | 0%
CCCCCCCCCC(=O)N[C@@H](CCN)C(=O)N[C@H](C(=O)N[C@H](C(=O)N[C@H](CC(C)C)C(=O)N[C@@H](CC(C)C)C(=O)N[C@@H](CCN)C(=O)N[C@@H](C(=O)N[C@@H](CC(C)C)C(=O)N[C@@H](CO)C(N)=O)C(C)C)[C@@H](C)O)[C@@H](C)CC | checkerboard, measured: rifampicin | ATCC 13883 | sensitization to antibiotics, added: compound at 2 µg/mL |  | MIC | > 0.125 µg/mL
CCCCCOc1ccccc1C(=O)/C=C/C=C/c1ccccc1 |  | MTCC 109 | 1 mg/mL, 18 h |  | zone of inhibition | 8 mm
Polymyxin B |  | NCTC 13424 | 5% CO2 |  | MIC | 2 µg/mL
COc1ccc(C(=O)NN=Cc2ccc(O)c3ncccc23)cc1 | bacterial growth | ATCC 13883 | cation-supplemented medium |  | EC50 | 85 µM
CC[C@H]1OC(=O)[C@H](C)[C@@H](O[C@H]2C[C@@](C)(OC)[C@@H](O)[C@H](C)O2)[C@H](C)[C@@H](O[C@@H]2O[C@H](C)C[C@H](N(C)C)[C@H]2O)[C@](C)(O)C[C@@H](C)C(=O)[C@H](C)[C@@H](O)[C@]1(C)O |  | community-acquired pneumonia patients | Fine score 70 or more |  | sensitive strains | 0%
CCOC(=O)c1cc(C#N)c(=O)n(NS(=O)(=O)c2ccc(C)cc2)c1N | microbial growth, well diffusion |  | 15000 µg/mL, 24 h |  | inhibition zone | 35.3 mm
